Measurements collected from several papers.
Every numbered part comes from another study and shows a few of its results, in no order.
UniProt Q93YR9, sequence (whole entry, looked up): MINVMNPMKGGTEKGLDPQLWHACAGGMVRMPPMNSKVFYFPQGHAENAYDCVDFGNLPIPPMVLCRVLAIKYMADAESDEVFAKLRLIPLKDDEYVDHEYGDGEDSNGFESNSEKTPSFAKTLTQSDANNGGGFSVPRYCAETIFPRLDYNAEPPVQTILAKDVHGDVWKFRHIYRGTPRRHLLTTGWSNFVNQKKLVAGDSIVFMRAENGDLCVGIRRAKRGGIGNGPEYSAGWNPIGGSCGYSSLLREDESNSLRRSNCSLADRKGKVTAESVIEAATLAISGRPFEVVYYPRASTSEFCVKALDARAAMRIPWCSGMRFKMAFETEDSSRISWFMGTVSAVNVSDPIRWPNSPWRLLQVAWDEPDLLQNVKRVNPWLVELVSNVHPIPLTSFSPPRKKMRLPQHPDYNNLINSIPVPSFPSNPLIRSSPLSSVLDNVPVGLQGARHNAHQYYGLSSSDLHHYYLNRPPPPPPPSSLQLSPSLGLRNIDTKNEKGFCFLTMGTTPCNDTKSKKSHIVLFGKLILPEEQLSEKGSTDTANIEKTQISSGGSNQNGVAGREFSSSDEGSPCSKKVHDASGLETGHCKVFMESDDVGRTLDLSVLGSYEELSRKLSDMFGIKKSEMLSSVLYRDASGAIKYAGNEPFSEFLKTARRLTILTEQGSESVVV
UniProt Q9C966, sequence (whole entry, looked up): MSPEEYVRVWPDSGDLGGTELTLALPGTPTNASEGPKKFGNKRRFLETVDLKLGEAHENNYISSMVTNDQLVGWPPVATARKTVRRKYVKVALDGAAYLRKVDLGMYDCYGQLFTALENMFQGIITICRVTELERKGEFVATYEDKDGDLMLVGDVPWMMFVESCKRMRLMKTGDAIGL
UniProt Q5VT25, sequence (whole entry, looked up): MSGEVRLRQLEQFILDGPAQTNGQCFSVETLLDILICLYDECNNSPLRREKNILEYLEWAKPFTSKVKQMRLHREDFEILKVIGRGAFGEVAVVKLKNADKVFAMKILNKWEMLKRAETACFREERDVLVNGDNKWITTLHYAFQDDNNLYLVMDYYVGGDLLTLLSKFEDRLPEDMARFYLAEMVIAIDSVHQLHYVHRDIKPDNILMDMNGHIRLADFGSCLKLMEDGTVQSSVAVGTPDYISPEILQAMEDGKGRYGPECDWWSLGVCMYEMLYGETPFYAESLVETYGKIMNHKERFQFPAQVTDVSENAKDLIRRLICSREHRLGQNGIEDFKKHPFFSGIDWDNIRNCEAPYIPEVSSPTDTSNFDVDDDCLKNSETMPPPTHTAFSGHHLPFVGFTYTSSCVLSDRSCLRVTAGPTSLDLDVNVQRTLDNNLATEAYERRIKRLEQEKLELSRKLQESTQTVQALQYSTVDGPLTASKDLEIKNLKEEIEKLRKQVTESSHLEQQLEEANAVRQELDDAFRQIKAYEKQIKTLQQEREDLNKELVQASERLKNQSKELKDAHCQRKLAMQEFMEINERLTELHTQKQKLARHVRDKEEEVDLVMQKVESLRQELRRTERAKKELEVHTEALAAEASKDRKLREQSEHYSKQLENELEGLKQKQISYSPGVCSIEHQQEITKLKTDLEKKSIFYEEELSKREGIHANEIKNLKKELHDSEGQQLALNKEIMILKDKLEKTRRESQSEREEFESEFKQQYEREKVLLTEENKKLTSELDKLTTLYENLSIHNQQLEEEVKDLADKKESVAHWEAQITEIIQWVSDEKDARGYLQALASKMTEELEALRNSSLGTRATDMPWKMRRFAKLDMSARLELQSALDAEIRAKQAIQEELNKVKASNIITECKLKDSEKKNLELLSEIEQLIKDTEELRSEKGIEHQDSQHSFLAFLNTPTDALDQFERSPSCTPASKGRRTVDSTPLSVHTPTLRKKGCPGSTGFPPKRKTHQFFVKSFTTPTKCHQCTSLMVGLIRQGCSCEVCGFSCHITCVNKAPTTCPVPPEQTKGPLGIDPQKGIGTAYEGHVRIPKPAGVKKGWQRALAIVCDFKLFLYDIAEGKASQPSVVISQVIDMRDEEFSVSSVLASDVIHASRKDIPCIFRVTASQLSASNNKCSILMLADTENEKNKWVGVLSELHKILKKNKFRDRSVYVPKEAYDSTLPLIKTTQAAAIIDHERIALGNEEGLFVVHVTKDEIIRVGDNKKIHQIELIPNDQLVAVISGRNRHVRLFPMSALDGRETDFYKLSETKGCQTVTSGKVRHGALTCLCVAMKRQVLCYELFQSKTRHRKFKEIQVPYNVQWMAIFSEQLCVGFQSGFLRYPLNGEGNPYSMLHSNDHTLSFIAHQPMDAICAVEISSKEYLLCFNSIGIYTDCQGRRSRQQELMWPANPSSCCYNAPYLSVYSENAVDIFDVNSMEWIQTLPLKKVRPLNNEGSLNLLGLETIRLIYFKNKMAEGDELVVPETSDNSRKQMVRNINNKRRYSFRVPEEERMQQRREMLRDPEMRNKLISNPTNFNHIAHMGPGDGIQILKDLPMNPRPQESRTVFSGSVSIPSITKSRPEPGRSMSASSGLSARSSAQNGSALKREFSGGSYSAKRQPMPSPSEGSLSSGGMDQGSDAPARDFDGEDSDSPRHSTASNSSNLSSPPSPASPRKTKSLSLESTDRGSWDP
UniProt Q38832, sequence (whole entry, looked up): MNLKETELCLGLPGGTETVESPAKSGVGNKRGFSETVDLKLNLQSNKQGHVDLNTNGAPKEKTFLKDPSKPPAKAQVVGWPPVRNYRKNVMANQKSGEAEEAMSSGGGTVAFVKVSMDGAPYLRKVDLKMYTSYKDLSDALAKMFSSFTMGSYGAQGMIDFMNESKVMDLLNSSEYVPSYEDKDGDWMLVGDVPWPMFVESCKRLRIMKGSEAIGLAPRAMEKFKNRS
UniProt Q94JM3, sequence (whole entry, looked up): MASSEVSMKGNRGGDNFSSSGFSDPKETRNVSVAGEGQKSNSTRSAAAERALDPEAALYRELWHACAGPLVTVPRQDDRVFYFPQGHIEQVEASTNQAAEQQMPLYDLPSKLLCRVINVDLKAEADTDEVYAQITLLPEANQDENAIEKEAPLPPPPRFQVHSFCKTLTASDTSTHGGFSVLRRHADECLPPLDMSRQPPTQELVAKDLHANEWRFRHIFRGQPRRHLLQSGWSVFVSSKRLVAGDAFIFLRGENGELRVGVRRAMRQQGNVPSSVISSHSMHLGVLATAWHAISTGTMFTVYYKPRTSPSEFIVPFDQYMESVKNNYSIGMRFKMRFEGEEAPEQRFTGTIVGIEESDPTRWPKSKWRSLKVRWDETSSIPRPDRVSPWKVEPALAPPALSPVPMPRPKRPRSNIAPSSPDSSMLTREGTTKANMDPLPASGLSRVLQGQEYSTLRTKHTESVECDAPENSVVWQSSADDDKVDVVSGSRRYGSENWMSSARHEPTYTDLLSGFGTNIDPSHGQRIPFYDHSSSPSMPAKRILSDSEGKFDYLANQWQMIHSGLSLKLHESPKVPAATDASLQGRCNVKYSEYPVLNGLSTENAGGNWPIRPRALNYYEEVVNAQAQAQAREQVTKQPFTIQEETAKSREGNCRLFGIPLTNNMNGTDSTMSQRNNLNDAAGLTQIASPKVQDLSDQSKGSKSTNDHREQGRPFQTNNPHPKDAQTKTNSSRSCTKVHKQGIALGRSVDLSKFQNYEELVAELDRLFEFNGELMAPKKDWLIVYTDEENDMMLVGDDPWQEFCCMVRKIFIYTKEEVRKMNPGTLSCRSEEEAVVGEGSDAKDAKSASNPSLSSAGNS

Series 1 — method: universal PBM; molecule type: double-stranded DNA, one strand shown; medium: in vitro; concentration: 600 nM; reading: higher = stronger binding
Target: Sal-like protein 4, full length isoform A (SALL4, Homo sapiens, UniProt Q9UJQ4, residues 1-1053)
UniProt Q9UJQ4, sequence (whole entry, looked up): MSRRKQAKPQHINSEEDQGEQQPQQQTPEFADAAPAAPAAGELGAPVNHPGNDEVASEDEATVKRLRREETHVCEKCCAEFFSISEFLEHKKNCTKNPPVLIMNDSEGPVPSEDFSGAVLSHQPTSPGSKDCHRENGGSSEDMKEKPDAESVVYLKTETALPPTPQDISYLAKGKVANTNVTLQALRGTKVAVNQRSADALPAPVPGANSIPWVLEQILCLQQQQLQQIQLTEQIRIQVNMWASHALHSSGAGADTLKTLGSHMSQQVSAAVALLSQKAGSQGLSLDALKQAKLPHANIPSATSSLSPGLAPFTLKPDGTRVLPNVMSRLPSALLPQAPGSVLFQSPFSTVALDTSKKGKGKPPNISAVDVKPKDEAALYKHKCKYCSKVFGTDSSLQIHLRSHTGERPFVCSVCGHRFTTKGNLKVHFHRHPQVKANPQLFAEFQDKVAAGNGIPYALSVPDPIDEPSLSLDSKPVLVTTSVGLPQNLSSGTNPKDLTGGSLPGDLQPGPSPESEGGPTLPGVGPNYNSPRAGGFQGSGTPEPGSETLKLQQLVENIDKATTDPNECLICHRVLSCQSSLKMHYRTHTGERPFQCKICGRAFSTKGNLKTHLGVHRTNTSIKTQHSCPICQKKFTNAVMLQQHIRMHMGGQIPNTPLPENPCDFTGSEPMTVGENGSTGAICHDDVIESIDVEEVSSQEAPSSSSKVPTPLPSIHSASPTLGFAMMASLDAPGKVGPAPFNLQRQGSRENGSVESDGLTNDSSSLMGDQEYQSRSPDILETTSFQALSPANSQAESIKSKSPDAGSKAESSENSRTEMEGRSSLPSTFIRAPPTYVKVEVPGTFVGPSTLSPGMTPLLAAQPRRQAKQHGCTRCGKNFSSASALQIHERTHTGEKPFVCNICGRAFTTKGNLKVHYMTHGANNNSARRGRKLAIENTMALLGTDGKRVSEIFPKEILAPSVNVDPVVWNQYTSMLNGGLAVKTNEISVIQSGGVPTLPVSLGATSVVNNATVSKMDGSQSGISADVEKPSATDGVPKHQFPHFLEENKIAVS
Setting: 8-mer, flanks averaged, mean of replicates
Oligonucleotide	E-score
GACCCTTA	0.077
ATAGTGTG	0.0986
GCATGATA	0.284
CTCCGCGC	-0.306
CACACCAG	-0.109
AGGATGTC	-0.0821
AAAGACAA	0.199
AACCCTGG	-0.167

Series 2 — effect on: enzyme activity; mode: inhibitor; concentration: 0.5 µM; baseline: control
Target: Tyrosine-protein kinase SYK (SYK, Homo sapiens, UniProt P43405)
Structure (SMILES)	remaining activity [%]
CC(C)[C@H](CO)Nc1nc(Nc2cc(N)cc(Cl)c2)c2ncn(C(C)C)c2n1	81.1
Oc1ccc(-c2nc(-c3ccncc3)c(-c3ccc(F)cc3)[nH]2)cc1	101
COc1cc2ncnc(Nc3ccc(Oc4ccccc4)cc3)c2cc1OC	98.6
Nc1ncnc2n[nH]c(Nc3ccc(F)cc3)c12	97.4
Cc1ccc(Nc2nccc(N(C)c3ccc4c(C)n(C)nc4c3)n2)cc1S(N)(=O)=O	101
Nc1ccc2ncnc(NCCc3ccc(Oc4ccccc4)cc3)c2c1	102
O=c1c2ccccc2[nH]c(=S)n1CCN1CCC(=C(c2ccc(F)cc2)c2ccc(F)cc2)CC1	93.2
COc1ccc(CNC(=O)Nc2ncc([N+](=O)[O-])s2)cc1	98.6
O=C1NC(=O)C(c2cn(CCCO)c3ncccc23)=C1c1cnccn1	60
OCC(O)CCON=C1C(c2c(O)[nH]c3ccccc23)=Nc2ccccc21 (centres unmarked)	38.6
NCCNc1ncc(C(N)=O)c(Nc2cccc(C(F)(F)F)c2)n1	15.6
O=S(=O)(c1cccc2cnccc12)N1CCCNCC1	84.3
Cc1ccc(NC(=O)c2ccc(CN3CCN(C)CC3)cc2)cc1Nc1nc(-c2cccnc2)cs1	101
Cc1cccc(-c2[nH]c(C(C)(C)C)nc2-c2ccc3c(c2)OCO3)n1	87
CCOC(=O)c1c(C)[nH]c(/C=C2\C(=O)Nc3ccccc32)c1C	89.3

Series 3 — effect on: cell-free assay; method: competition with immobilised ligand; concentration: 1 µM
Structure (SMILES): COc1cccc(CNC(=O)c2nc3scc(COCc4ccc(C(=O)O)cc4)c3c(=O)[nH]2)c1
target	remaining binding [%]
DAPK1 (Homo sapiens, UniProt P53355)	100
CDC42BPA (Homo sapiens, UniProt Q5VT25)	100
FLT3 (Homo sapiens, UniProt P36888, R834Q)	77.9
PRKACA (Homo sapiens, UniProt P17612)	100

Series 4 — method: two-hybrid; reading: higher = firmer interaction
Molecule: IAA8 (Arabidopsis thaliana, UniProt Q38826)
UniProt Q38826, sequence (whole entry, looked up): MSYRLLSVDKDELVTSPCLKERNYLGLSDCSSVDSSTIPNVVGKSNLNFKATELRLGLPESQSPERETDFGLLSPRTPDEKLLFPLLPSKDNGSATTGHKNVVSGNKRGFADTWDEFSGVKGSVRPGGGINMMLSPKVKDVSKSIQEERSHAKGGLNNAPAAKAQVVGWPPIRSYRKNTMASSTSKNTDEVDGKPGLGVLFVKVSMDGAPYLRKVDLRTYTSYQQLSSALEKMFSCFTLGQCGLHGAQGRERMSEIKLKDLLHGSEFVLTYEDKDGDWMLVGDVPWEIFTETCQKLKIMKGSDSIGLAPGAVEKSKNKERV
partner	scale	positive tests
ARF13 (Arabidopsis thaliana, UniProt Q9FX25)	baseline: out of 4 tests	0
ARF16 570-670 (Arabidopsis thaliana, UniProt Q93YR9)	baseline: out of 2 tests	0
ARF12 500-593 (Arabidopsis thaliana, UniProt Q9XID4)	baseline: out of 4 tests	1
ARF2 727-859 (Arabidopsis thaliana, UniProt Q94JM3)	baseline: out of 4 tests	0
ARF5 788-902 (Arabidopsis thaliana, UniProt P93024)	baseline: out of 2 tests	2
IAA14 (Arabidopsis thaliana, UniProt Q38832)	baseline: out of 4 tests	3
IAA15 (Arabidopsis thaliana, UniProt Q9C966)	baseline: out of 4 tests	4
IAA13 (Arabidopsis thaliana, UniProt Q38831)	baseline: out of 2 tests	0

For quick reference, copied from above (series 4):
partner	scale	positive tests
ARF13 (Arabidopsis thaliana, UniProt Q9FX25)	baseline: out of 4 tests	0
ARF16 570-670 (Arabidopsis thaliana, UniProt Q93YR9)	baseline: out of 2 tests	0
ARF12 500-593 (Arabidopsis thaliana, UniProt Q9XID4)	baseline: out of 4 tests	1
ARF2 727-859 (Arabidopsis thaliana, UniProt Q94JM3)	baseline: out of 4 tests	0
ARF5 788-902 (Arabidopsis thaliana, UniProt P93024)	baseline: out of 2 tests	2
